Results of several laboratories.
Numbered parts are unrelated; each lists some results of a single study.

Series 1
Target: RING finger protein unkempt homolog, zinc fingers 1-6, GST-SBP tag (UNK, Homo sapiens, UniProt Q9C0B0, residues 30-357)
Technique: RNA Bind-n-Seq
Form: RNA
Matrix: in vitro
Tested at: not given
Notes: RNA with constant flanks, human and mouse sites, ends assumed
Baseline: input RNA pool
Reading: higher = stronger binding
Endpoint: bound/input enrichment
Shared flanks, not repeated: GGGAGUUCUACAGUCCGACGAUC … CAACAGAGGAUUGAGCAUCA
Target sequence (chain): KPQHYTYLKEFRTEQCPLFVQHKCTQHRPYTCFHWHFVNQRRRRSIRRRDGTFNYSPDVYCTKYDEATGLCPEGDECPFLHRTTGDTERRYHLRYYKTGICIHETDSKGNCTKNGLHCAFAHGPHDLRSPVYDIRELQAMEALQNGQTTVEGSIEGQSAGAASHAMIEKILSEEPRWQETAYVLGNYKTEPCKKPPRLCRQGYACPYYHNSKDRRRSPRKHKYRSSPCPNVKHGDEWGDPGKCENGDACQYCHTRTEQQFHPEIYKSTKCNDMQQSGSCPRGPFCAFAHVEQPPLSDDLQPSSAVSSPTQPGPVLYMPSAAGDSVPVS
AAAACACUUUUCCGUAACAUUUUCUCUCUGCGACUCCCAGAGCUUUUAGUAUCUCCAGAAUGUUAUUUUCCAUUUUCUAUACGACUCAAAAGCAAUAUAAACUCCAAAAAAUCUACGAAA: 0.91 ratio
AUAGUAUGUGAUCCUGUAUAACAGACUGAGUCUAUUUAUAUUUUCUUUUUUUUAAGACUGUCUAGAAAUUUUGUGUAUUAUGAGGGGAAAAAAGGAAAAGCUUGAAUCUGUGUAGUCUCU: 3.05 ratio
UUGAACUAUCCUAAUGAGACAAAUUUAUACCUUCCCCCAGCCCCCAAGGUUAAAACUAAUACCCUAAUUCAUUAAACUCUUGAAACAGGUGUCACAAAGGAGGAAGACAUCACCCCUCAC: 0.51 ratio
GAACAUGGCAUCCAGCCUGAUGGCCAGAUGCCAAGUGACAAGACCAUUGGGGGAGGAGAUGACUCCUUCAACACCUUCUUCAGUGAGACAGGAGCUGGCAAGCAUGUGCCCCGGGCAGUG: 0.124 ratio
GUCACAGGGCUCCUGAAGGAGCUGCACGUCCGACUGGAGAGACGGUCAAGGCUGGUGGUUCUGUCAACCGUCGGGGUGCCAGGCACGGGCAAGUCCACACUCCUCAACACCAUGUUUGGG: 0.16 ratio
CCAGUCCACAGGGGAAGCCUGUUAGGACUGUGGAGCGUGUUUCCCCGAAGGUAGCUUCCAACUAGGCUUUCCUCACUGCUUUCUCCCCCAGCGCCUGUAUUAUGUGAAGGAGGCCCAUGG: 0.359 ratio
GAAAGAACCGUUCCCAGGAUAUUUGUCAAUGGACGAUUUAUUGGAGGCGCAGCGGACACUCACAGGCUUCACAAAGAAGGGAAAUUGCUGCCUCUGGUUCAUCAGUGUUAUUUAAAAAAA: 0.164 ratio
GGACCCCAGGUCAGGGGCUCCCUACAUUCCCCAGAGUGGGAUCCACUUCUUGGUUCCUGGGAUGGCGAUGGGGACUCUGCCGCUGUGUAGGGACCAGUGGGAUGGGCUCUACCUCUCUUU: 0.0741 ratio

Series 2
Target: Histone acetyltransferase KAT6A, both winged helices, GST fusion (KAT6A, Homo sapiens, UniProt Q92794, residues 1-181)
Technique: protein binding microarray
Form: double-stranded DNA, one strand shown
Matrix: in vitro
Tested at: not given
Notes: 8-mer, flanks averaged, mean of 2 arrays, mostly near background
Baseline: not given
Reading: higher = stronger binding
Endpoint: E-score
Residues (chain): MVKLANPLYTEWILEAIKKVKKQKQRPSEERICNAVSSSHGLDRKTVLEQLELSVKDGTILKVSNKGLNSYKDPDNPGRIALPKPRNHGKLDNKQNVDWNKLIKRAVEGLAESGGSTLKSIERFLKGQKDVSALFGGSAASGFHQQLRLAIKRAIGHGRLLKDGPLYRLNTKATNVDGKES
AATTGTCC: -0.00912
AGTTTAGC: -0.0673
GCCACACC: 0.0057
AGAAGTCC: -0.0742
CGGTATCA: 0.174
ACTCTCAG: -0.135
GGTCGCCA: 0.0146
AACCGCGT: 0.311
ATACTCTA: -0.00855
ACCCAAAT: -0.152
TGGCATAA: -0.136
CAGGAAAG: -0.167
CTCCAAGC: -0.0776
AAGTGAGG: -0.218
AGGATCCA: -0.0634
AACGTTAC: 0.0838
GCAAACGC: 0.0544
GGCCCTAA: -0.131
CCATCTGC: -0.0265
ACCATGGG: 0.0291
AATTACTC: -0.0727
AGCATGCA: -0.139
ATATGGCA: 0.042
CAGGCGGG: 0.172
AATGTCCA: -0.169

Series 3
Target: Interferon regulatory factor 5, full length, phosphomimetic (IRF5, Homo sapiens, UniProt Q13568-2, residues 1-514, K96S/S451D/S453D/S456D/S462D)
Technique: protein-binding microarray
Form: double-stranded DNA, one strand shown
Matrix: in vitro
Tested at: 250 nM
Notes: 60-bp whole probe
With: salmon DNA 0.4 mg/ml
Baseline: random background probes
Reading: higher = stronger binding
Endpoint: log fluorescence
Shared flanks, not repeated: GCCTAGCAC … GTCTTGATTCGCTTGACGCTGCTG
TTCCTTCTGCCTGTCCATTCGTGCTAG: 0.666 z-score
TCACATGTGCTGTCTCAGACTGTGCTA: -0.176 z-score
ACTGATCACCGATTTCCTTCAGTGCTA: 0.291 z-score
TTAGGACTTGACACTGGGTTAGTGCTA: -0.424 z-score
TTAGATATCAGTTACGATTAGTGCTAG: 1.71 z-score
GGGAGCTATTAATTATTTTGGTGCTAG: 0.0714 z-score
GACGGTCTCGTTCTCCTGACGTGCTAG: -0.162 z-score
TTAGATCTCACACTGGATTAGTGCTAG: -0.0654 z-score
TCACTCCTCTAGGTTCTCACTGTGCTA: 0.221 z-score
TCATTTTTACTTTCTGAACTGTGCTAG: 3.51 z-score
GACGGTCTCTGTTTCGGGACGTGCTAG: 2.94 z-score
TTAGGTCACCTTATCCTTTAGTGCTAG: -0.118 z-score
TATTTTGGAAACTCACAACAGTGCTAG: 0.434 z-score
AACGAACTGGGGTATCGAGACGTGCTA: 0.298 z-score
GACGATTCCGGGTTTCGAGACGTGCTA: 1.92 z-score
TCACCTTGCATGTTTTTGACTGTGCTA: 0.679 z-score

Series 4
Target: RNA binding protein fox-1 homolog 2, RRM domain, GST-SBP tag (RBFOX2, Homo sapiens, UniProt O43251-10, residues 100-194)
Technique: RNA Bind-n-Seq
Form: RNA
Matrix: in vitro
Tested at: 365 nM
Notes: natural RNA segment, single round, ends assumed
Baseline: no-protein control
Reading: higher = stronger binding
Endpoint: RBNS enrichment (R)
Shared flanks, not repeated: GGGAGUUCUACAGUCCGACGAUC … UGGAAUUCUCGGGUGCCAA
Residues (chain): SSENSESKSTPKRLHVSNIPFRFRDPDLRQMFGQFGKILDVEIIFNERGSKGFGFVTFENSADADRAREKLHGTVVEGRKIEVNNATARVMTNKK
CCUCCACCCCUGACCCCCAUCCUCUUUUCCUACCUCUCUGUUUGGUUUAGAAAUUGCUCAAUAAGUCAUUUGGGGUUUGGCAUCCUGCCCAGCCACUUCCCAAACAUGAA: 0.674
GAGGGGUGGGAGCCCUUAAGAACUAUUGAUGUGGCCUUAAAUUACUGUCAUUUAUUAUCCUAAAGAAGAAAACAUAAUAACCAUAAUGGGCUCUCAACUCAACUCCCUUU: 0.53
AGUGUCUGUGAUCACUAACAGGGAGUGGGCCUUGAGUCCACUCCAGAACUGUGGUGGGAGACCAAUACUCUUAACAGACUGUCCAGUAGGUAUCGGGAAUCCUUGAACAA: 0.204
UGGCUGAGUGUGGAUGACUUUUAUUUUAGGAGAAGGGCGAUUAACACUUUUGACAGUAUUUUGUUUUGCCCUGAUUUGGGGGAUUGUUUUGUUUUGGUGGUUGUUUUGGA: 6.84
CCUGCUUUUUGUUUUGGAUAGUACCUUGUCUGUAUAAGAAGCUGGCCUUUCCAUAGAGAGGCCCUGGAGUCUAAAAUUAUGAGAACAAUUAAUUUAUUUGUGUCUUCUAU: 0.303
GUUACACUGUUAGAACACUAUUUUCAGAAUCUGAAUGUAAUUUGUGUAAUAAAGUGUUUUCAGAGCAUUAGCUGUCAGUGUAUUUUCCAGUUUUUGCGUAUUUGCAGAUU: 0.58
UUGAGUGGGUGCACAGGAAGCAGCUAGCGGAUAGGAAGGCACUCUGCUCUGUGAUGGCAAGUGAAGACUUGAGAACUUAGGGUGAUGACCACCGAACAGCACAGCUAGUG: 0.536
AUAUUUAUUUGAUAGCGAUAAGUCUCCGAAGGGAGUGGAAAUGCAGUCAGCCUGGGCCCUUAGCCCAUGACUACCCUCCAGUGAGGCUCUGAGGCCUGGCUAGGGCCCUC: 0.364

A few entries again (series 2):
AATTGTCC: -0.00912
AGTTTAGC: -0.0673
GCCACACC: 0.0057
AGAAGTCC: -0.0742
CGGTATCA: 0.174
ACTCTCAG: -0.135
GGTCGCCA: 0.0146
AACCGCGT: 0.311
